Measured values collected from several papers.
A part holds a random share of what one study measured. Changes are numbered by the printed parent chain.
Sequence of UniProt Q05655 (whole entry, looked up): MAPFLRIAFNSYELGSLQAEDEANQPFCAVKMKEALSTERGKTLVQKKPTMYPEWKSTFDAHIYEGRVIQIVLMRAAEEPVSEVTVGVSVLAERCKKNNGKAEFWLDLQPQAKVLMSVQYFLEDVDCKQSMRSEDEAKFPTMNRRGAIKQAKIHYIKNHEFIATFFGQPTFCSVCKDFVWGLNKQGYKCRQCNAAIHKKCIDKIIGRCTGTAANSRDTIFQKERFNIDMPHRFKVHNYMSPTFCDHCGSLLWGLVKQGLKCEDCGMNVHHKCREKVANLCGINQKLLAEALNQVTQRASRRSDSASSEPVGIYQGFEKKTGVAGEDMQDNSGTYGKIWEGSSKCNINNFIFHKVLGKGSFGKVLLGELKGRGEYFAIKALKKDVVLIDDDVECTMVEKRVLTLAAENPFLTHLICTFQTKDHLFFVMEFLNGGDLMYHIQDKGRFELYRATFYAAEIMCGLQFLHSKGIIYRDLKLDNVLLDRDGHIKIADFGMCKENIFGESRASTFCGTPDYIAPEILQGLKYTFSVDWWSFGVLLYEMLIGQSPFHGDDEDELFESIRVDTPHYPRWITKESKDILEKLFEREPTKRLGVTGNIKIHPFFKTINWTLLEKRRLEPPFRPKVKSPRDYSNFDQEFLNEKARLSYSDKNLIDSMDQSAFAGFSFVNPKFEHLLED
Sequence of UniProt Q9UQM7 (whole entry, looked up): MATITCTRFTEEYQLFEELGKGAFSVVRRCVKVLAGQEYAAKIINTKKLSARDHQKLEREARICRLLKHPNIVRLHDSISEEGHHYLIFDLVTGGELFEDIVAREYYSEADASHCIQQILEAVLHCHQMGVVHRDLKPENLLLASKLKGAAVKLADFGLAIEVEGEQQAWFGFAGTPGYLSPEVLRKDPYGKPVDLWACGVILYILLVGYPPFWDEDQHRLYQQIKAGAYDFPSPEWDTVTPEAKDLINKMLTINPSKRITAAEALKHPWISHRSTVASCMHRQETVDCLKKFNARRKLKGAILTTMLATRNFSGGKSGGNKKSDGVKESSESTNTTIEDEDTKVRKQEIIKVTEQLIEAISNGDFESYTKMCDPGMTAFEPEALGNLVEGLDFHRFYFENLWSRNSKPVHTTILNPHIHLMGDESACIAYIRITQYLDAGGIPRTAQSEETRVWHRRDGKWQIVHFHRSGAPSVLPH
Sequence of UniProt Q9H2X6 (whole entry, looked up): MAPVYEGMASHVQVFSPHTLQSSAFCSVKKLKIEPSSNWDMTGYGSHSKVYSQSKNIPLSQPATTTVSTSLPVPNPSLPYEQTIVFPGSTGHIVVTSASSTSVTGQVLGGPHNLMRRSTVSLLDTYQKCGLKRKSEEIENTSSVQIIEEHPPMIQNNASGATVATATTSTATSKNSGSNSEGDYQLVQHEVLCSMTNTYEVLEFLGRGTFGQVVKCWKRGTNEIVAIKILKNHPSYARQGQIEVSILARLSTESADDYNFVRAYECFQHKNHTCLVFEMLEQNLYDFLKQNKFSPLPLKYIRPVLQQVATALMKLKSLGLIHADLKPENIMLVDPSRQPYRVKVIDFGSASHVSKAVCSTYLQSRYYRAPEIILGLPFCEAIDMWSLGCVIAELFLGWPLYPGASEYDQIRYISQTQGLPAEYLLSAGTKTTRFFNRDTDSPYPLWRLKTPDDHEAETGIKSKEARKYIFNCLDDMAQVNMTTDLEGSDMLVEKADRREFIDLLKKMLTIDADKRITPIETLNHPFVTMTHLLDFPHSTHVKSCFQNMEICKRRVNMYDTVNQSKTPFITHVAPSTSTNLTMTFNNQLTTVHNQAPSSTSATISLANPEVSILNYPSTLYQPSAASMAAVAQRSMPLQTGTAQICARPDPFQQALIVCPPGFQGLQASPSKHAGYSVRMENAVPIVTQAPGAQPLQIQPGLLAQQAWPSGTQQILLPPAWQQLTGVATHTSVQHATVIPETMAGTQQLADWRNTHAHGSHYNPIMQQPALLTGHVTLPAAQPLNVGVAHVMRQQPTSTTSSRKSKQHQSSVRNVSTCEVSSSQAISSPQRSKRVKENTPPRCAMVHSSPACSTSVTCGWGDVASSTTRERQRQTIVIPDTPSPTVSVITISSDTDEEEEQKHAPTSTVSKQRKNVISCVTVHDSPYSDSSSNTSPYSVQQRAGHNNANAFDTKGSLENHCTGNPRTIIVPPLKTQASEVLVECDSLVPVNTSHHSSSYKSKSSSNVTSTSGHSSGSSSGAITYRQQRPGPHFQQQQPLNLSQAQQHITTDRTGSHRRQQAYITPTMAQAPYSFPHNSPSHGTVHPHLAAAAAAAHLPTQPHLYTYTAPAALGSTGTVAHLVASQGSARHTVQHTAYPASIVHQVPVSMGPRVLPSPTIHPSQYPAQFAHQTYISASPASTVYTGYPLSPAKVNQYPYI
Sequence of UniProt Q15208 (whole entry, looked up): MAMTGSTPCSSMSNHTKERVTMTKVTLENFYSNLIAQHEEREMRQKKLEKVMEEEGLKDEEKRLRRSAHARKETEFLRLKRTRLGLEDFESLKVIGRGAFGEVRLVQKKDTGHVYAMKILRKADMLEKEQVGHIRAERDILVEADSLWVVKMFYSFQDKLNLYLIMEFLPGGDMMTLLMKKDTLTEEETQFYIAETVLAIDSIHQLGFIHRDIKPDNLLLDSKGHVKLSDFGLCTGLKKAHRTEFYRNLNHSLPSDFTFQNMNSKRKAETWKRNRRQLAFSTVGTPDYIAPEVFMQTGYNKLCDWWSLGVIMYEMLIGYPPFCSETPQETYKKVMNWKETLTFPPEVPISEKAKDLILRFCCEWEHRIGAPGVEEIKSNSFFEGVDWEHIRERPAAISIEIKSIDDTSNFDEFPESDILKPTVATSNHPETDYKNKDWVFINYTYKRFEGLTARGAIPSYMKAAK
Sequence of UniProt P78362 (whole entry, looked up): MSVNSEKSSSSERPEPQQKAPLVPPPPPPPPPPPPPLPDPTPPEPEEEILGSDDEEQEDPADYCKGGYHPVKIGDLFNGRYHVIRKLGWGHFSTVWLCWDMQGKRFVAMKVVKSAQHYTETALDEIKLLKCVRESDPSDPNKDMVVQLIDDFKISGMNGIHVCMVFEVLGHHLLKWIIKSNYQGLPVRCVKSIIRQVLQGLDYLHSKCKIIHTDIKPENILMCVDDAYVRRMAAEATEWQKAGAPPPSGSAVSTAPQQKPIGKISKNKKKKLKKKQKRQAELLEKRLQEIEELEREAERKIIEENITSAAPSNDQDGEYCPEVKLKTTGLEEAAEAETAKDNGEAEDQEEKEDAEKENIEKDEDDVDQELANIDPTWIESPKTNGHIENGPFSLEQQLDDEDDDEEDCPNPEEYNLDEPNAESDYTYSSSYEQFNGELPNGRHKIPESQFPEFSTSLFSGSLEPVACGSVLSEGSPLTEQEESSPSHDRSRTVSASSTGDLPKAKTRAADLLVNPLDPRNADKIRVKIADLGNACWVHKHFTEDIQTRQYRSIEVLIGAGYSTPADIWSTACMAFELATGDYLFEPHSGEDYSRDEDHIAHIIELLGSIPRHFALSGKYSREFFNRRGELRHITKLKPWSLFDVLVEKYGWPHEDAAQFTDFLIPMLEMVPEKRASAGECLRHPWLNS
Sequence of UniProt O14733 (whole entry, looked up): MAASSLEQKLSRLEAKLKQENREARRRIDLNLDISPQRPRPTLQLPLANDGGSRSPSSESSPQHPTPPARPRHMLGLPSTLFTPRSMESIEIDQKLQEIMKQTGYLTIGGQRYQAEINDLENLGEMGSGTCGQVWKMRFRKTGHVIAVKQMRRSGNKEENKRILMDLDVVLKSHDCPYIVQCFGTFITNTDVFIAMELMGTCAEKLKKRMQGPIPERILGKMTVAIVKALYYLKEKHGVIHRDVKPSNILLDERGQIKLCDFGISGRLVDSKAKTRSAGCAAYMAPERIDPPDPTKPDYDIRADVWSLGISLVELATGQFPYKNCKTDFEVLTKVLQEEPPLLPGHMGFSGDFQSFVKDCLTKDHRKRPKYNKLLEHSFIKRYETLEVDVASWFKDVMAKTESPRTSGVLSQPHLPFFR

Block 1
Target: RING finger protein unkempt homolog, zinc fingers 1-6, SBP tag (UNK, Homo sapiens, UniProt Q9C0B0, residues 30-357)
Sequence of UniProt Q9C0B0 (30-357, looked up): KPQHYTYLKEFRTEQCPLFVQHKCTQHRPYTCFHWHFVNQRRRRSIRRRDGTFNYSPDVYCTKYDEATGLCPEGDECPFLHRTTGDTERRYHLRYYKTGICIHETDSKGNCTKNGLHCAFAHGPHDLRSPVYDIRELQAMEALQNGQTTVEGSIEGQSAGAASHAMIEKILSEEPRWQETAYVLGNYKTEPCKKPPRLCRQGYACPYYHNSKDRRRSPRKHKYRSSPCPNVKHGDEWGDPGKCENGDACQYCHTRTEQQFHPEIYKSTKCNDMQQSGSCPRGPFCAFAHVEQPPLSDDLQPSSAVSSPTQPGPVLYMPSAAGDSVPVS
Technique: RNA Bind-n-Seq
Form: RNA
Matrix: in vitro
Concentration: 100 nM
Setting: RNA with constant flanks, vertebrate orthologous sites, ends assumed
Reference: input RNA pool
Reading: higher = stronger binding
| Strand | bound/input enrichment [ratio] |
| --- | --- |
| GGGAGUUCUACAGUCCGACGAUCUAAGUAAAAUACUGGAUGCAGCAUAUAGAUGAUCCAAGGCAGUGACUUUAGCUUUAGAUACUAGUUUUAAGGUUAUUUACAUUUAUUUAAACUUUUACAUUGGACUAUUUGCUAUUGCUGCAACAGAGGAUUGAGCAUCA | 0.502 |
| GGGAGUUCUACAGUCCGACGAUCGUUAAAUGUGUGUCAAAUGCUGGAUGUAAUGUUAAACCGUCAUUUAGAAUAGAUGUUAAUUUGUUAUGAUUAAGCUACAAAUAGGUUUCCUUAAACCAGAGAUGCACCGCCCUUGUCUGACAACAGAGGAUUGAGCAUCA | 0.544 |
| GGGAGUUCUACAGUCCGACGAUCUUCAGUCCCCUGGGCUGGGACACUUGUUUUUUAACAUCUUGAAAUUUAACUCUGUGCUUGUAGAAGACUGUAACCUUUUUUUCUUUUUUUUUUUUUAAACAACCUCCACCUCCAGUGGCUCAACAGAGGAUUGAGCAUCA | 2.02 |
| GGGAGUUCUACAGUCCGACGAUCAAAUUUAUUUCAUGCCCUGGACUCCCUAUCGUACUGAUACUUUAAUAGAAUAUGCUUCUUUAGAAGAUUUUCAAAAUAGUCGCCAAACAACAACAUAUAAACUUCCAAAUCGAGUAGAUGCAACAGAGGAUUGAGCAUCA | 1.07 |
| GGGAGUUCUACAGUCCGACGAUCAAAUUUAUUUUAUGCCCUGGACUCCCUACCGCACUGAUACUUUAAUAGAGUAUGCUUCUUUAGAAGAUUUUCAAAACAGCCGCCAGACAACAACAUACAAACUUCCAAACCGAGUAGACGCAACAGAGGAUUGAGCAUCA | 2.04 |
| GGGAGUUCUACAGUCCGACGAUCAGGCACAACUGACUGGUUCACAGCAGCAUUCCUUACAGAAUUAUUUAGCAAAUGCAAGUAUAGUUAAUUUUCAGGAAACAACCAGGCAGUCAUCUUUAUCCUGUAGCUCAAUUGGAGAUUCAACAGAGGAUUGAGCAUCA | 1.15 |
| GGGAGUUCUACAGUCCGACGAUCUACAUCUGGUGAUAUUUGGCCUGGCCUUUCAGCUUAUGAUAAUAGUCCCAGAUCACCCCAUAGUCCUUCACCGAUUGCUACACCACCGAGUCAGAGUUCAUCUUGCUCUGAUGCCCCUAUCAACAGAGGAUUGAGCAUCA | 0.692 |
| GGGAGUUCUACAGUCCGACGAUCUUCAGGCACAACUGACUGGUUCACAGCAUUCCUUACAUAGCUAUCUAUCAAAUGCAAGUGUAGUUACUUUUCAGGAACCAAGCAGGCAGUCAUCUUUAUCCUGUAGCCCCGUCGGAGAGUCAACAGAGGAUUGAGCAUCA | 0.705 |

Block 2
Substitution: R88P
Target: ABI1, truncated, D143A, DHFR fusion (Arabidopsis thaliana)
Technique: DHFR PCA, deep sequencing
Matrix: yeast
Setting: methotrexate growth selection, single substitutions
Reference: wild-type fitted maximum
Reading: higher = stronger binding
Starting sequence: PYL1, truncated, DHFR fusion (Arabidopsis thaliana); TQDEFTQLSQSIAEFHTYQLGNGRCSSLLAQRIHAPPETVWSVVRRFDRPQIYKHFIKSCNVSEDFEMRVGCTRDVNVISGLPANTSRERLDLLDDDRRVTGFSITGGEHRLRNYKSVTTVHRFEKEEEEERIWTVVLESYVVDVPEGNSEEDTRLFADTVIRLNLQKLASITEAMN; partner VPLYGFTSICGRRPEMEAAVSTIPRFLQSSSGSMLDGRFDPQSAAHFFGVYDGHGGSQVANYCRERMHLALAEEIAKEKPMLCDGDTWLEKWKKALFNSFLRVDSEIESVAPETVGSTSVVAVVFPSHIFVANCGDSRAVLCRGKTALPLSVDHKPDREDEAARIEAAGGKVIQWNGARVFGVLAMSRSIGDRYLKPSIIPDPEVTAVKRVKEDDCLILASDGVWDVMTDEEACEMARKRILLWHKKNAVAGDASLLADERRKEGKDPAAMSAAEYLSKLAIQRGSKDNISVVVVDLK
| conditions | relative binding score [%] |
| --- | --- |
| together with: (+)-ABA 200 µM | 8.29 |
| together with: (+)-ABA 17 µM | -19.8 |
| together with: (+)-ABA 0.032 µM | -1.37 |
| together with: (+)-ABA 1.4 µM | -6.99 |
| together with: (+)-ABA 710 µM | 12.7 |
| together with: (+)-ABA 0.11 µM | -3.56 |

Block 3
Structure (SMILES): O=C(Nc1cccnn1)N1CCC(=Cc2cccc(Oc3ccc(C(F)(F)F)cn3)c2)CC1
Observed: cell-free assay
Technique: competition with immobilised ligand
Concentration: 1 µM
| target | remaining binding [%] |
| --- | --- |
| PRKCD (Homo sapiens, UniProt Q05655) | 93 |
| PIKFYVE (Homo sapiens, UniProt Q9Y2I7) | 100 |
| PKN1 (Homo sapiens, UniProt Q16512) | 100 |
| MAP4K5 (Homo sapiens, UniProt Q9Y4K4) | 100 |
| Ribosomal protein S6 kinase alpha-3, N-terminal kinase domain (RPS6KA3, Homo sapiens, UniProt P51812) | 100 |
| MAP2K7 (Homo sapiens, UniProt O14733) | 100 |
| STK38 (Homo sapiens, UniProt Q15208) | 100 |
| Tyrosine-protein kinase ABL1, non-phosphorylated (ABL1, Homo sapiens, UniProt P00519) | 68 |
| SRPK2 (Homo sapiens, UniProt P78362) | 100 |
| HIPK2 (Homo sapiens, UniProt Q9H2X6) | 100 |
| MAP3K14 (Homo sapiens, UniProt Q99558) | 100 |
| EGFR (Homo sapiens, UniProt P00533, L861Q) | 84 |
| ERBB3 (Homo sapiens, UniProt P21860) | 84 |
| CAMK2A (Homo sapiens, UniProt Q9UQM7) | 72 |

Block 4
Target: Beta-adrenergic receptor kinase 1 (GRK2, Homo sapiens, UniProt P25098)
Sequence of UniProt P25098 (whole entry, looked up): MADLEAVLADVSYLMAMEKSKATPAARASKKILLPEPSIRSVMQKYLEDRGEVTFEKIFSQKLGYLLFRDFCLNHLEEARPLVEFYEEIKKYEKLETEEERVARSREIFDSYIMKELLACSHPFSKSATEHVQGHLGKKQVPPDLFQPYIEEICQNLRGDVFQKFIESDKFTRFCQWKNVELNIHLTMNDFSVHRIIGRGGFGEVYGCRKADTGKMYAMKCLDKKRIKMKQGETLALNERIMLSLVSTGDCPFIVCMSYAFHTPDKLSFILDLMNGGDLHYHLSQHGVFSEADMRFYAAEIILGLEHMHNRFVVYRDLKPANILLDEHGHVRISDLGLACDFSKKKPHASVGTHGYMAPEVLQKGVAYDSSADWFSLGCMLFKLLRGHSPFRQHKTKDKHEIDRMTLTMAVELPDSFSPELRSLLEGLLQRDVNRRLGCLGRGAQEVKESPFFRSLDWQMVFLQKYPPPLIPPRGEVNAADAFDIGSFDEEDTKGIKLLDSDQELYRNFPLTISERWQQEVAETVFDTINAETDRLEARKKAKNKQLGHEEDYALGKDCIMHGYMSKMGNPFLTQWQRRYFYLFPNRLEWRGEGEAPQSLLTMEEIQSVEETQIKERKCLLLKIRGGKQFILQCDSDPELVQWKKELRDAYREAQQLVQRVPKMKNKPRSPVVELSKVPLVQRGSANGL
Observed: enzyme activity
Mode: inhibitor
Concentration: 0.5 µM
Reference: control
| SMILES | remaining activity |
| --- | --- |
| O=C(Nc1cccc(Nc2cc(Nc3cccc(C(F)(F)F)c3)ncn2)c1)C1CC1 | 97.9% |
| O=S(=O)(c1cccc2cnccc12)N1CCCNCC1 | 105% |
| O=c1c2ccccc2[nH]c(=S)n1CCN1CCC(=C(c2ccc(F)cc2)c2ccc(F)cc2)CC1 | 100% |
| COc1ccc(OC)c2c(=S)c3ccccc3[nH]c12 | 92.5% |
| CO[C@H]1C[C@@H]2CC[C@@H](C)[C@@](O)(O2)C(=O)C(=O)N2CCCC[C@H]2C(=O)O[C@H]([C@H](C)C[C@@H]2CC[C@@H](O)[C@H](OC)C2)CC(=O)[C@H](C)/C=C(\C)[C@@H](O)[C@@H](OC)C(=O)[C@H](C)C[C@H](C)/C=C/C=C/C=C/1C | 102% |
| CN(C)c1ccc(C=C2C(=O)Nc3ccccc32)cc1 | 101% |
| C#Cc1cccc(Nc2ncnc3cc(OCCOC)c(OCCOC)cc23)c1 | 92.9% |

For quick reference, copied from above (block 4):
| SMILES | remaining activity |
| --- | --- |
| C#Cc1cccc(Nc2ncnc3cc(OCCOC)c(OCCOC)cc23)c1 | 92.9% |
| COc1ccc(OC)c2c(=S)c3ccccc3[nH]c12 | 92.5% |
| CO[C@H]1C[C@@H]2CC[C@@H](C)[C@@](O)(O2)C(=O)C(=O)N2CCCC[C@H]2C(=O)O[C@H]([C@H](C)C[C@@H]2CC[C@@H](O)[C@H](OC)C2)CC(=O)[C@H](C)/C=C(\C)[C@@H](O)[C@@H](OC)C(=O)[C@H](C)C[C@H](C)/C=C/C=C/C=C/1C | 102% |
| O=c1c2ccccc2[nH]c(=S)n1CCN1CCC(=C(c2ccc(F)cc2)c2ccc(F)cc2)CC1 | 100% |
